Assay results pooled from the literature.
Every numbered part comes from another study and shows a few of its results, in no order. Changes are numbered by the printed parent chain.

Set 1 — technique: protein-binding microarray; form: double-stranded DNA, one strand shown; medium: in vitro; concentration: 250 nM; setting: 60-bp whole probe; together with: salmon DNA 0.4 mg/ml; baseline: random background probes; direction: higher = stronger binding; measurement: log fluorescence; shared flanks, not repeated: GCCTAGCAC … GTCTTGATTCGCTTGACGCTGCTG
Target: Interferon regulatory factor 7, full length, phosphomimetic (IRF7, Homo sapiens, UniProt Q92985, residues 1-503, S101K/S471D/S472D/S475D/S476D/S477D/S483D/S484D/S487D)
Construct (chain): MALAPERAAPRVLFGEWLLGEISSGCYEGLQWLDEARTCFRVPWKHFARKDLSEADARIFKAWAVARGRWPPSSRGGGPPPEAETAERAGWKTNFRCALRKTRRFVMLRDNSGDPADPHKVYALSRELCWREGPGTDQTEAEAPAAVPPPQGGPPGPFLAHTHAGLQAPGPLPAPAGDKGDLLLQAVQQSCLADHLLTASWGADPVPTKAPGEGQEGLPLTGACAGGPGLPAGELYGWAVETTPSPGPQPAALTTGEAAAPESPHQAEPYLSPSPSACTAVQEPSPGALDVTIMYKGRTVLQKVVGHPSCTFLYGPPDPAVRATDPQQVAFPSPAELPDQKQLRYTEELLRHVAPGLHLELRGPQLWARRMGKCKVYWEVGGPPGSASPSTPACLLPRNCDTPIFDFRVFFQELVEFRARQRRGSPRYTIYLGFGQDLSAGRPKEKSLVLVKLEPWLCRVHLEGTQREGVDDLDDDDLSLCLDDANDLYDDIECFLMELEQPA
TCATCTCCCCCATCTTGTACTGTGCTA: 0.0343 z-score
TCAAGACTTTCTTTCAAACTGTGCTAG: 0.477 z-score
GACGATTTCGGGTATCGACACGTGCTA: 0.608 z-score
CACTCTGTCCCTCTGTGACAGTGCTAG: 0.385 z-score
GACGGTCTCGGCTTCGGGACGTGCTAG: 0.529 z-score
TTAGGTATCGGTTTCGGATAGTGCTAG: 8.77 z-score
GACGGTTCCGGTTTCGGGCCGTGCTAG: 5.5 z-score
GATGAACTGGGGACTGGAGACGTGCTA: -0.811 z-score
GACGATCTAAGTATCGAGACGTGCTAG: 0.431 z-score
GACGGTCTCCTTCTCCCGACGTGCTAG: 0.242 z-score
GACGGTCTGGACTTTCGGGACGTGCTA: -0.544 z-score
GATGAATAAAGCGTTGCTGCGTGCTAG: -0.358 z-score
GACGGAATCCTTTTCCTGACGTGCTAG: 0.451 z-score
GTGGGAAACCGGAAAGGCAAAGTGCTA: -0.185 z-score
TCATTTTTTTAATTGAAACTGTGCTAG: 0.993 z-score
TCAGTTACGGAATTTCCCACTGTGCTA: 1.17 z-score

Set 2 — technique: universal PBM; form: double-stranded DNA, one strand shown; medium: in vitro; concentration: 600 nM; direction: higher = stronger binding; measurement: E-score
Target: Sal-like protein 4, full length isoform A (SALL4, Homo sapiens, UniProt Q9UJQ4, residues 1-1053)
Sequence of UniProt Q9UJQ4 (whole entry, looked up): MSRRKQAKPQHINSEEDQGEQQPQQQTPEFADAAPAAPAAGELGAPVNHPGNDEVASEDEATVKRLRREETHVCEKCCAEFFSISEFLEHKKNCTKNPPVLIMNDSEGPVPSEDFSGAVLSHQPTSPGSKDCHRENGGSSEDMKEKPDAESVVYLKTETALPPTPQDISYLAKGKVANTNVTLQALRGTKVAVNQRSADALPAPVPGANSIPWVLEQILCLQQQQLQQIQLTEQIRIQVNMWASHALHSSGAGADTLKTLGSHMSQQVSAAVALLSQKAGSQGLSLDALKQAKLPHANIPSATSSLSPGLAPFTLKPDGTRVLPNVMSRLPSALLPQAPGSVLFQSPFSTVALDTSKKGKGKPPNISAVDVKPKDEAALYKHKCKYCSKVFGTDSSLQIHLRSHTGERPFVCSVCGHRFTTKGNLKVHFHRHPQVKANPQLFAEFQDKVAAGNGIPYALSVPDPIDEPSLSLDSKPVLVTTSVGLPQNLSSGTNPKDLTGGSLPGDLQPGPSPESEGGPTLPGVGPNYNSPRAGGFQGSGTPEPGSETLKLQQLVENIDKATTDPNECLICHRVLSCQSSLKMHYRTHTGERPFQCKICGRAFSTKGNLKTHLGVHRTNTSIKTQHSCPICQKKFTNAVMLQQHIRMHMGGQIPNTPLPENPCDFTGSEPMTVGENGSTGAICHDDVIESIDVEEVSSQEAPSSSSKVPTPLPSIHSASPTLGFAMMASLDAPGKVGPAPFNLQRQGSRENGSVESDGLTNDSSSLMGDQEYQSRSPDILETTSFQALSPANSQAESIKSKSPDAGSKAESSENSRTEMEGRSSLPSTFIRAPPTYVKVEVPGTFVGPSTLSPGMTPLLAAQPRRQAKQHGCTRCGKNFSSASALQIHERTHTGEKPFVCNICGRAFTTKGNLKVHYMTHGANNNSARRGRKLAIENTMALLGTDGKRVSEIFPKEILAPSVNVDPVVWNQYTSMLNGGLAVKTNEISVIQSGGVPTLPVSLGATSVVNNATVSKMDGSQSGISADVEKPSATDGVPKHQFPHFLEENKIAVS
Setting: 8-mer, flanks averaged, mean of replicates
AATCTAAA: 0.243
CGGCTTAA: -0.0574
CTAGTAGC: -0.103
GTGTACCA: 0.0136
ACTTTGCC: -0.112
GATTTCTA: 0.223
AGAGGCAC: -0.143
CATGGAGA: 0.00729
CTATGACC: 0.122
CGAATCCC: -0.245
AGGAGTCA: 0.024
CTCTCGAC: -0.175
TAAGATCA: 0.149
AAGTGTCT: 0.0623
CAGGGGAA: -0.226
CAATTGCA: 0.156
AGTTCGGC: -0.143
AGTAAGTC: -0.108

Set 3 — technique: DHFR PCA, deep sequencing; medium: yeast; together with: (+)-ABA 0.11 µM; baseline: wild-type fitted maximum; direction: higher = stronger binding; measurement: relative binding score
Target: ABI1, truncated, D143A, DHFR fusion (Arabidopsis thaliana)
Setting: methotrexate growth selection, single substitutions
Starting sequence: PYL1, truncated, DHFR fusion (Arabidopsis thaliana); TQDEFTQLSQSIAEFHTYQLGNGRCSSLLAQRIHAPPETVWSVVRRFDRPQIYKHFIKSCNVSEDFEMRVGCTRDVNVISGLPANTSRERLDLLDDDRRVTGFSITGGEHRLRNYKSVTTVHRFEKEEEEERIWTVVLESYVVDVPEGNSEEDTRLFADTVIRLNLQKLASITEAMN; partner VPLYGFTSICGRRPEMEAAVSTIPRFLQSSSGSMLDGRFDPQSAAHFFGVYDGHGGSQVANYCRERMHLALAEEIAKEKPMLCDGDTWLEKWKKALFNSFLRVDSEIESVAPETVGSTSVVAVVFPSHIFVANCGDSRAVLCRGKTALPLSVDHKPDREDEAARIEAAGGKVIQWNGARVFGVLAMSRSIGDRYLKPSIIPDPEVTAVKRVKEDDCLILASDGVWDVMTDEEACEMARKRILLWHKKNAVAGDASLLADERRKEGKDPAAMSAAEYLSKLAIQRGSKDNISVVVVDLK
N61A: 39.2%
S27C: 7.82%
R155Q: 7.56%
R24P: -8.44%
V161Y: 17.8%
Y18H: 46.2%
S140D: -6.9%
L166F: -4.68%
T17P: 2.02%
T6H: 40.3%
S9D: 15.3%
T160Y: 20.7%
R46M: 4.73%
S9R: 59.3%
H55S: 30%
T106G: -1.67%
V121R: -1.7%
R155T: 4.75%
T73I: 44.7%
Q2Y: 64.9%
V43W: -5.89%

Set 4 — target: CCNA2, cyclin fold, Cln2 fusion (human); technique: yeast growth competition, sequencing; medium: yeast; setting: strong parent motif; baseline: not given; direction: higher = stronger binding; measurement: normalised enrichment score
Starting sequence: CDC6 docking peptide (human); TLKGRRLVFDNQL; partner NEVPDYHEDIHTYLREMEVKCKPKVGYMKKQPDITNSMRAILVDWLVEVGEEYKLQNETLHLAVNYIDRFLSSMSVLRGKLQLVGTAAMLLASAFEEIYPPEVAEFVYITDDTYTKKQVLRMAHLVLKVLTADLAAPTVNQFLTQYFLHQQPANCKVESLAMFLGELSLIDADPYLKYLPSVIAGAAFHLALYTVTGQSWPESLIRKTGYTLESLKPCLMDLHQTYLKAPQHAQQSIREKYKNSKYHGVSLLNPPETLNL
Q12V: 3.43
G4P: 5.2
L7V: 0.958
L7D: 0.129
K3Y: 2.06
T1Y: 2.67
N11Q: 2.99
G4F: 1.15
F9T: 0.945
D10P: 1.43
L13I: 2.34
L2M: 2.39
L2P: 2.83
V8C: 3.45

Set 5 — technique: EMSA with sequencing; form: double-stranded DNA, one strand shown; medium: in vitro; concentration: 10 and 20 nM; baseline: negative control set to 0; direction: higher = stronger binding; measurement: normalised bound fraction
Target: Hepatocyte nuclear factor 3-alpha (Foxa1, Mus musculus, UniProt P35582, residues 1-468, full length assumed)
Setting: whole designed probe, mean of two concentrations, ends assumed
Shared flanks, not repeated: GTGAGCGGTGCCCATTGATGGGGAAC … TTTCACTGGGATCGTGGGGAC
Target sequence (chain): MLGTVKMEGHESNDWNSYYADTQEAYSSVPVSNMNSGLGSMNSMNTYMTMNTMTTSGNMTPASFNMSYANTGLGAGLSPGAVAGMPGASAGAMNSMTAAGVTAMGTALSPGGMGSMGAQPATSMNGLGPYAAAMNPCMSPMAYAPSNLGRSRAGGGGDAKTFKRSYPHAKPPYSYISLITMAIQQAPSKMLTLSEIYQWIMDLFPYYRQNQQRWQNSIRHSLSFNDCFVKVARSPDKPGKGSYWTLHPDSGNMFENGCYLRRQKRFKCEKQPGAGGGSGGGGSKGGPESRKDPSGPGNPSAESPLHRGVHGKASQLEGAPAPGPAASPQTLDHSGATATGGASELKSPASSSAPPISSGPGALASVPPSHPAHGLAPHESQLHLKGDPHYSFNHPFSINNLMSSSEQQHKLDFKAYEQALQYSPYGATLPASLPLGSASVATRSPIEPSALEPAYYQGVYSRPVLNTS
AGTTGGGATTAAAAAAACAAAATCCAAAATCTGGGTTTCAGTGTCATCTGTAAAATGTAGATATAATGACTGTGGTGAGTATCTGTGTGTGCAAGAGTACATATGTGTATGAGTTTATGTAGGAGTACACATATACTTAGAAGCACAAATGAGTCATGCTCTATACAACATTGTGCAGCTCCTTTTTTACAGA: 0.0626 ratio
ATCTTCCCCCTCTTCCTTGCCCCACCAGCTCACCTTCCCGGGTTATTTGCAGATAGGAAAATAAATAAAGCCGGCATTCGTTAACCCTCTTCACGCGCATACTGCTGTTTGCTCTGGATCTAACATGGGATGAATCATGCGCCAGGCTCCGGGAGAGCAAAGCACCGTGTCAGGGCCATGATCCGGGGTGGCC: 0.364 ratio
CCTTGTTATTTGCAGGTATCCAAATGTCTGCATGTGGGAGCATTCCTTGTGGATTAGGGTGTTAGTGTCTAGGAGTCTCCTCTTTTATGAAATGCAAACATTCTTTGAGCACAATTGCAACATCAGCTGTGATATTTACCTAAATGTTTCCCAAGGATAAGTGGCTTACGTCAGAGCCCTGAGGCTACAGGAT: 0.361 ratio
AATATTGCTTCCATACGTTCTGTTGCTTAAGTTCACCTCTGCCTCTAGGGCTCACACTTGTATTCCTTTTGCCTGGACTGCTTTTTCCCCAAAAAATTACACAGCTGGCTACTTGTTCTTGTCACTCAAACACACTTGAGTATCACTCTCAGAGATACTTTGTTGAGTTCCTCATCTAATACATCCACTACAT: -0.0406 ratio
CATTAGTTCATGCCAGGCAGGGTTTGACCAAAACCTTGGACTCACTCCTGTCTGCTTTCCTTCAGTGACTAAGAGGATTCCTGAGATGGATGTGCAAACATGAAGTGTTTACTTTCCTCCATGGGAATGTACTTCTGGCTTCCACTCCTCAGCTGCTGCTGCTAAGCCAGTGAGATAGATGGTGGTTTGGAAA: 0.402 ratio
